Measured values pooled from the literature.
Compare with care: the assays were run in different laboratories. ± gives the spread as reported.
Chain of UniProt Q8NEB9 (whole entry, looked up): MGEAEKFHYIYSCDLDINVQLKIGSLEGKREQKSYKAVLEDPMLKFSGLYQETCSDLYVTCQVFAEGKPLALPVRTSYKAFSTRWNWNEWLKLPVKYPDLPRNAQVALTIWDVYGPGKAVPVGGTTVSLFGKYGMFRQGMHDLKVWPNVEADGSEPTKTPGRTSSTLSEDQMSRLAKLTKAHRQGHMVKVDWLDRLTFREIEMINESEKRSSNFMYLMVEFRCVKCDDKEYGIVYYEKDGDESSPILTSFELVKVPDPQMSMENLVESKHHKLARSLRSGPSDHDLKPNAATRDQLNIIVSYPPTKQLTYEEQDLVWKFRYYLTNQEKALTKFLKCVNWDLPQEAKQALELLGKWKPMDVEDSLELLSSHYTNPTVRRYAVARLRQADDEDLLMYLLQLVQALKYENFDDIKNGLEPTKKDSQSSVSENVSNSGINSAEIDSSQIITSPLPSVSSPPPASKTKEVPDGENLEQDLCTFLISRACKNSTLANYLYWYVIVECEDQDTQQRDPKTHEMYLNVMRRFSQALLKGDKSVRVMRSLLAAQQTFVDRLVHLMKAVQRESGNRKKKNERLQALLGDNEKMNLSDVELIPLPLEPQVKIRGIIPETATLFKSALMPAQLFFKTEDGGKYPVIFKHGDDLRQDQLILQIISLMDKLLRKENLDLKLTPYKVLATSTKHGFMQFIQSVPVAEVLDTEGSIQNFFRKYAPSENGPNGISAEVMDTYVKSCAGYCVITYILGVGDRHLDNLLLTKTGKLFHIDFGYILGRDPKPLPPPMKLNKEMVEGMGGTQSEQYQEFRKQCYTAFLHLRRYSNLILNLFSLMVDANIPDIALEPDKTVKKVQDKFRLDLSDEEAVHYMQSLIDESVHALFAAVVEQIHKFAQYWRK

Structure (SMILES) = Cc1cc(NC(=O)C(=O)N2C[C@@H](C)CC[C@@H]2c2ccc3scnc3c2)cnc1N; target or system = MDCK-II; conditions = 2 h, passive permeability; quantity = Papp A to B; result = 19.7 ×10⁻⁶ cm/s
Structure (SMILES) = Cc1cccnc1-c1csc(C(=O)Nc2cc(Cl)cc(NS(C)(=O)=O)c2)c1; target or system = HUVEC; test = cell growth or viability, ATP luminescence; conditions = 10 days; quantity = CC50; result = > 10 µM
Structure (SMILES) = NCCOCCOCCNC(=O)Cc1ccc(Nc2nc(NCc3ccc(F)cc3)nc(NCC3CCCCC3)n2)cc1; target or system = HUVEC; test = cytotoxicity, CCK-8; conditions = 48 h, 10% FBS; quantity = IC50; result = 69.4 µM
Structure (SMILES) = CC[C@H]1OC(=O)[C@H](C)[C@@H](O[C@H]2C[C@@](C)(OC)[C@@H](O)[C@H](C)O2)[C@H](C)[C@@H](O[C@@H]2O[C@H](C)C[C@H](N(C)C)[C@H]2O)[C@](C)(OC)C[C@@H](C)C(=O)[C@H](C)[C@@H](O)[C@]1(C)O; target or system = HEK293; test = cell growth or viability; quantity = CC50; result = > 32 µg/mL
Structure (SMILES) = C[C@@H]1O[C@@H](O[C@@H]2[C@@H](O)[C@H](O)[C@@H](CO)O[C@H]2c2c(O)cc(O)c3c(=O)cc(-c4ccc(O)cc4)oc23)[C@H](O)[C@H](O)[C@H]1O; target or system = Caco-2 monolayer; test = transwell permeability; conditions = 100 µg/mL, apical to basolateral, HBSS, DMSO 1%, with: SDS 10 mg/mL; scale = reference: SDS alone; quantity = Papp increase; result = 15.5%
Structure (SMILES) = O=c1oc2cc(O)ccc2cc1-n1cc(COc2ccccc2)nn1; target or system = J774; test = cell growth or viability, ATP luminescence; conditions = 72 h; quantity = CC50; result = > 80 µM
Structure (SMILES) = Cc1nn(-c2cccc(N)c2)c(=O)c2cnc(Nc3ccc(N4CCNCC4)cc3)nc12; target or system = PIK3C3 (Homo sapiens, UniProt Q8NEB9); test = kinase activity, inhibitor, SelectScreen kinase profiling; quantity = IC50; result = > 10 µM
Structure (SMILES) = Cc1ccc2ccc([N+](=O)[O-])c(O)c2n1; target or system = RRCK low-efflux MDCK-II cells; conditions = 1.5 h, 37 °C, apical to basal; quantity = Papp; result = 4.6 ×10⁻⁶ cm/s
Structure (SMILES) = CCC1(CC)CC(=O)N(C2CCOc3ccc(C(=O)NC4CC(C)(C)Oc5ccccc54)cc32)C(=N)N1 (stereo not shown); target or system = MDCK-II; quantity = Papp; result = 11.6 ± 0.6 ×10⁻⁶ cm/s
Structure (SMILES) = O=c1c(O)ccccc1O; target or system = LX-2; test = cell growth or viability, MTS; quantity = CC50; result = 71 µM
Structure (SMILES) = O=CCNCCOn1c(=O)n(OCCNCCO)c(=O)n(OCCNCCOn2c(=O)n(OCCNCCO)c(=O)n(OCCNCCO)c2=O)c1=O; target or system = HUVEC; test = cell growth or viability, MTT; conditions = 200 µg/mL, 24 h; quantity = viability; result = 34.4%
Structure (SMILES) = CC1(F)CN(C(=O)Cn2c(=O)c(C(=O)NCc3ccc(Cl)cc3)cc3nc(N4CCN(CCN)C4=O)cnc32)C1; target or system = Vero; test = cell viability, CCK-8; conditions = 5 days; quantity = CC50; result = > 40 µM
Structure (SMILES) = CC(CCCOC(=O)CCC[N+](C)(C)C)C1CCC2C3CCC4CC(OC(=O)CCC[N+](C)(C)C)CCC4(C)C3CCC12C (stereo not shown); target or system = NIH3T3; test = cytotoxicity, LDH release; conditions = 5% FBS; quantity = IC50; result = 48 µg/mL
Structure (SMILES) = COc1ccc(O)c2nc(C)ccc12; target or system = RRCK low-efflux MDCK-II cells; conditions = 1.5 h, 37 °C, apical to basal; quantity = Papp; result = 2.15 ×10⁻⁶ cm/s
Structure (SMILES) = Cc1nc(=S)[nH]c(C)c1/N=N/c1nnc(S)s1; target or system = Vero; test = cell growth or viability, MTT; conditions = 72 h; quantity = CC50; result = ≥ 10 µg/mL
Structure (SMILES) = CNS(=O)(=O)Nc1nccc(Cc2c(C)c3ccc(Oc4ncccc4F)cc3oc2=O)c1F; target or system = SiHa; test = cell viability; conditions = 7 days; quantity = IC50; result = > 1 µM
Structure (SMILES) = O=C(Nc1cc(-c2ccnc3[nH]ccc23)c(Cl)cn1)[C@H]1CCC[C@@H](NC(=O)C(F)(F)F)C1; target or system = MDCK-MDR1 cells; test = permeability; conditions = time not given, apical to basolateral; quantity = recovery; result = 86.6%
Structure (SMILES) = Cc1ccc2cc(C#N)cc(O)c2n1; target or system = RRCK low-efflux MDCK-II cells; conditions = 1.5 h, 37 °C, apical to basal; quantity = Papp; result = 1.2 ×10⁻⁶ cm/s
Structure (SMILES) = N#Cc1cccc(/C=C/C(=O)c2ccc(O)cc2)c1; target or system = U-118-MG; test = cell growth, MTT; conditions = 72 h; quantity = IC50; result = 4.29 ± 1.42 µM
Structure (SMILES) = Cc1cc(=O)c2c(O)c3c(O[C@@H]4O[C@H](CO)[C@@H](O)[C@H](O)[C@H]4O)cc(O)cc3cc2o1; target or system = HK-2 co-cultured with HepaRG; test = MTT; conditions = 266.67 µM, 48 h; scale = reference: untreated control; quantity = cell viability; result = 55.2 ± 3.07%
Structure (SMILES) = Cc1ccc2ccc(Br)c(O)c2n1; target or system = RRCK low-efflux MDCK-II cells; conditions = 1.5 h, 37 °C, apical to basal; quantity = Papp; result = 4.1 ×10⁻⁶ cm/s
Structure (SMILES) = Cc1ncsc1-c1ccc(C(C)NC(=O)C2CC(O)CN2C(=O)C(NC(=O)CCCCCCCCCCN2CCCC(Nc3ncc(Cl)c(Nc4ccccc4S(=O)(=O)C(C)C)n3)C2)C(C)(C)C)cc1 (stereo not shown); target or system = 22Rv1; test = RNA-seq, refers to: ZNF425 mRNA; conditions = concentration not given; scale = reference: DMSO; quantity = log2 fold change; result = -1.91
Structure (SMILES) = Cc1ccc2ccc(C)c(O)c2n1; target or system = RRCK low-efflux MDCK-II cells; conditions = 1.5 h, 37 °C, apical to basal; quantity = Papp; result = 4.14 ×10⁻⁶ cm/s
Structure (SMILES) = O=C(/C=C/c1cc(Br)ccc1F)c1ccc(O)cc1; target or system = U-118-MG; test = cell growth, MTT; conditions = 72 h; quantity = IC50; result = 17 ± 2.67 µM
Structure (SMILES) = N=C(N)NCCC[C@@H]1NC(=O)[C@H](CCCNC(=N)N)NC(=O)[C@@H](CCCNC(=N)N)NC(=O)[C@@H](CCCNC(=N)N)NC(=O)[C@@H](C(c2ccccc2)c2ccccc2)NC(=O)[C@H](Cc2c[nH]c3ccccc23)NC(=O)[C@@H](C(c2ccccc2)c2ccccc2)NC1=O; target or system = HEK293; test = cell growth or viability, MTS; conditions = 100 µg/mL, 24 h; quantity = viability; result = > 90%
Structure (SMILES) = O=C(/C=C/c1cccc(C(F)(F)F)c1)c1cccc(O)c1; target or system = U-118-MG; test = cell growth, MTT; conditions = 72 h; quantity = IC50; result = 10.1 ± 1.75 µM
Structure (SMILES) = Nc1ncc(-c2cc(-c3cnn(CC(F)(F)F)c3)ncc2F)nc1C(=O)NC1CNCC(F)C1 (stereo not shown); target or system = VEGFR2; test = KINOMEscan competition binding; conditions = 1 µM; scale = reference: DMSO control; quantity = remaining binding; result = 74%
Structure (SMILES) = Nc1ncnc2c1ncn2[C@@H]1O[C@H](CSCc2ccc3ccccc3c2Br)[C@@H](O)[C@H]1O; target or system = L2 rat cells; test = cytotoxicity, crystal violet; quantity = CC50; result = > 200 µM
Structure (SMILES) = CCOC(=O)c1c(C(=O)OC)cn(CC(c2cn(C)c3ccccc23)c2cn(C)c3ccccc23)c1C; target or system = human primary fibroblasts; test = viability, MTS; conditions = 24 h; quantity = CC50; result = > 20 µM
Structure (SMILES) = COC(=O)c1cc(O)c(=O)c(O)cc1C; target or system = LX-2; test = cell growth or viability, MTS; quantity = CC50; result = 88 µM
Structure (SMILES) = O=C1NC2(CC2)COc2ncc(F)cc2[C@H]2COCCN2c2ccn3ncc1c3n2; target or system = CHL cells; test = chromosomal aberration test; conditions = 10 µg/mL, 24 h, without S9 mix; quantity = cells with chromosome gaps; result = 1%
Structure (SMILES) = CN1CCCNC(=O)c2cccc(c2)C(=O)NCCCN(C)CCCNc2cccc3c2C(=O)c2cccc(c2C3=O)NCCC1; target or system = HEK293; test = cell growth or viability, CCK-8; conditions = 0.15 µM, 48 h; quantity = viability; result = 91.4%
Structure (SMILES) = C=C1CC[C@H](OCCCNC(=O)CCOCCOCCOCCOCCOCCOCCOCCOCCOCCOCCOCCOCCOCCOCCOCCOCCOCCOCCOCCOCCOCCOCCOCCOCCOCCOCCOCCOCCOCCOCCOCCOCCOCCOCCOCCOCCNC(=O)CCN2C(=O)CC(SC[C@H](NC(=O)[C@H](Cc3ccccc3)NC(=O)[C@H](CC(N)=O)NC(=O)[C@H](Cc3c[nH]cn3)NC(=O)[C@@H](NC(=O)[C@H](CC(=O)O)NC(=O)[C@H](CCC(N)=O)NC(=O)[C@H](CC(C)C)NC(=O)[C@H](CCCCN)NC(=O)[C@H](CCCCN)NC(=O)[C@H](CCCNC(=N)N)NC(=O)[C@H](CC(C)C)NC(=O)[C@H](Cc3c[nH]c4ccccc34)NC(=O)[C@H](CCC(=O)O)NC(=O)[C@@H](NC(=O)[C@H](CCCNC(=N)N)NC(=O)[C@H](CCC(=O)O)NC(=O)[C@H](CCSC)NC(=O)[C@H](CO)NC(=O)[C@H](CC(N)=O)NC(=O)[C@H](CC(C)C)NC(=O)[C@H](Cc3c[nH]cn3)NC(=O)[C@H](CCCCN)NC(=O)CNC(=O)[C@H](CC(C)C)NC(=O)[C@H](CC(N)=O)NC(=O)[C@H](Cc3c[nH]cn3)NC(=O)[C@H](CCSC)NC(=O)[C@H](CC(C)C)NC(=O)[C@H](CCC(N)=O)NC(=O)[C@@H](NC(=O)[C@H](CCC(=O)O)NC(=O)[C@H](CO)NC(=O)[C@@H](NC(=O)[C@@H](N)CO)C(C)C)[C@@H](C)CC)C(C)C)C(C)C)C(=O)O)C2=O)C/C1=C/C=C1\CCC[C@]2(C)[C@@H]([C@H](C)CCCC(C)(C)O)CC[C@@H]12 (stereo partly shown); system = male Sprague-Dawley rat, plasma; conditions = subcutaneous, 300 µg/kg, single dose; quantity = Tmax; result = 3 h
Structure (SMILES) = Cc1ccc2c(Cl)ccc(O)c2n1; target or system = RRCK low-efflux MDCK-II cells; conditions = 1.5 h, 37 °C, apical to basal; quantity = Papp; result = 2.27 ×10⁻⁶ cm/s
Structure (SMILES) = COC1CN([C@H]2CC[C@H]([C@@]3(C)Oc4c(Cl)cc(C(=O)NCc5c(SC)cc(C)[nH]c5=O)c(C)c4O3)CC2)C1; test = RNA-seq, refers to: SMPDL3A mouse homolog; system = mouse, HT-1376 xenograft, whole blood; conditions = dose not given; scale = reference: vehicle; quantity = log2 fold change; result = 0.144
Structure (SMILES) = C=CC(=O)Nc1cccc(Cn2ncc3cnc(Nc4cnn(CCOC)c4)nc32)c1; target or system = STK33 human; test = binding, KINOMEscan; conditions = 100 nM; scale = lower = stronger binding; quantity = percent of control; result = 100%
Structure (SMILES) = O=C1/C(=C/c2cc(Cl)c(O)c(Cl)c2)CNC/C1=C\c1cc(Cl)c(O)c(Cl)c1; target or system = L02; test = MTT; conditions = range over 3.75 to 60 µM, 24 and 48 h; quantity = cytotoxicity; result = not toxic
Structure (SMILES) = C=C(NC(=O)c1csc(-c2nc3c(cc2O)-c2nc(cs2)C(=O)NC(C(C)O)C(=O)NC(=C(C)OC)c2nc(cs2)C(=O)NC2c4nc(cs4)C(=O)NC(COC(=O)c4c5c6c(cccc6n4O)COC(=O)C(OC4CC(C)(O)C(N(C)C)C(C)O4)C2OC5)c2nc-3cs2)n1)C(N)=O (stereo not shown); system = ICR mice, Streptococcus pneumoniae ATCC 49169 infected, immunocompromised, blood; conditions = intravenous, 4 mg/kg/day three times daily; quantity = Tmax; result = 0.08 h
Structure (SMILES) = Cc1ccc2ccc(F)c(O)c2n1; target or system = RRCK low-efflux MDCK-II cells; conditions = 1.5 h, 37 °C, apical to basal; quantity = Papp; result = 2.57 ×10⁻⁶ cm/s
Structure (SMILES) = CN1C/C(=C\c2cc(Cl)c(O)c(Cl)c2)C(=O)/C(=C/c2cc(Cl)c(O)c(Cl)c2)C1; target or system = L02; test = MTT; conditions = range over 3.75 to 60 µM, 24 and 48 h; quantity = cytotoxicity; result = not toxic
